# Results from different studies.
# Every numbered part comes from another study and shows a few of its results, in no order. Changes are numbered by the printed parent chain.

# Series 1 — technique: protein binding microarray; form: double-stranded DNA, one strand shown; sample: in vitro; tested at: not given; reference: not given; direction: higher = stronger binding
# Target: Histone acetyltransferase KAT6A, both winged helices, GST fusion (KAT6A, Homo sapiens, UniProt Q92794, residues 1-181)
# Notes: 8-mer, flanks averaged, mean of 2 arrays, mostly near background
# Target sequence (chain): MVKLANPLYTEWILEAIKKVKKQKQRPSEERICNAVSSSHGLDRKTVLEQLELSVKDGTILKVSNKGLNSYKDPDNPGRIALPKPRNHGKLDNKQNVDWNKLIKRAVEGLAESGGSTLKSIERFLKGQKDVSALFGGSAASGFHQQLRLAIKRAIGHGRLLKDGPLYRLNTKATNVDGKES
Sequence,E-score
AATATTTA,-0.0531
CGCCAATC,-0.0128
AGTGTCCG,0.066
CCTATCAC,-0.0377
CGAGAGCA,-0.0303
ACTGTCTA,-0.0862
GCCAAAGC,0.0882
CAATACGC,0.069
CTGACGCA,0.184
CGCGTCTA,0.283

# Series 2 — technique: RNA Bind-n-Seq; form: RNA; sample: in vitro; tested at: 365 nM; reference: no-protein control; direction: higher = stronger binding
# Target: RNA binding protein fox-1 homolog 2, RRM domain, GST-SBP tag (RBFOX2, Homo sapiens, UniProt O43251-10, residues 100-194)
# Notes: natural RNA segment, single round, ends assumed
# Target sequence (chain): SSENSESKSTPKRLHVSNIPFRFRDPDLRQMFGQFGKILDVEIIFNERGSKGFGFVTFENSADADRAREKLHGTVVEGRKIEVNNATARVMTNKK
Sequence,RBNS enrichment (R)
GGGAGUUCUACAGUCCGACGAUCAUGCCCUGGACGGCACUCUGUUCCUUAAAGUCCAGUUCCACCCUGACGUCCACAGAGGCAGCACGGAGUGGCGAAACUCGGUUCCAGCCUGUCGUCGGCAGUGAGCGGGUUGGAAUUCUCGGGUGCCAA,0.375
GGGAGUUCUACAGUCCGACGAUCCCCUUCCAUGCCAGCCCUUCCUGCUGCCUCCCUCCUGUCUGGCUCCUGGGGCCCAUGCUUAGAGCCCAGGCUCCAGCCCUGAGUGCUUCCGAGCUGGCGGACUGCCCAGGUGGAAUUCUCGGGUGCCAA,0.932
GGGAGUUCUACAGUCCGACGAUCGCCUGUUCACUGUUUCAGGCUGCUCAGCACACAUUGGGAGAGGUGGCCAUAUCCCAGAACACUACCUCAUCCACCUGGCAGAGGGAAUUUCUGCUUCAGCCACCAAGCAGUGGAAUUCUCGGGUGCCAA,0.625
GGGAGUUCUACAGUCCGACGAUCGAAAGGUUGCGUUUAAUAUAUUUUUUGAACUUUGUAGGACAAAACAUAGCUGGUUAACCUUGAAGUGACUGUUGUACCAUGGUUGUGCACAUGCUUCAGAAUCCUAUGGAUGGAAUUCUCGGGUGCCAA,0.336
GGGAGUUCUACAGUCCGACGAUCCCUUUUCUGUGCGCCUGUUCUGAAGCCAACUUAAACCUGUCCACAUCUUCACUACCAUUCGCCCUUUCUGCUGAAGGAAUGGUGACGUGUUCCCAGGAGAACUGGGAGGCUGGAAUUCUCGGGUGCCAA,0.269
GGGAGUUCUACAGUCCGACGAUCGUUCUGAGAGUGCCCGCAGGCUGCUGCGUCCUGGCCCCUCUGUAGUGGCUGCGGGCGUCUUGGUUGAAUCUUUUGCUACAAACCAUGUUUGCGUUUGAGCUCUCCAGGAUUGGAAUUCUCGGGUGCCAA,0.946
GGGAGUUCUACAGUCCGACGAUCUACCAUGGAUUUGAAAUGAACUCAUCCUUGCUGUGAGCAUCCAGGAGCCCUUGAGAAGUUUAUCUAUGACUAUGAAACUGGCAACGUCACCCCAGAAUUACGGUCAGCCUUGGAAUUCUCGGGUGCCAA,0.735
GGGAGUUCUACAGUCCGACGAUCAGGAAACGAAUGACUAAUAGCAUUAUGAGUCUUAUGUGAAGACAACACUAUUCUAACACAGGAGAUAAUGUACUUGGUACUGUUUAUUCAACUGGGGGAAAAUAAAACUUUGGAAUUCUCGGGUGCCAA,0.7

# Series 3 — target: CCND2, cyclin fold, Cln2 fusion (human); technique: yeast growth competition, sequencing; sample: yeast; notes: weak parent motif; reference: not given; direction: higher = stronger binding
# Starting sequence: PKMYT1 docking peptide (human); SFEPRNLLSLFED
Substitution,normalised enrichment score
SFEPRNLLALFED [S9A],0.391
SFEPRNLLSLFHD [E12H],0.262
SFEPRNLDSLFED [L8D],-0.35
SFEPRNLLSLFEF [D13F],0.245
SFEPRNLLSLFEE [D13E],0.0152
SFEPRNLLSLFAD [E12A],0.0668
SFAPRNLLSLFED [E3A],-0.105

# Other studies, line by line
Substance,target,test,system,setting,scale,endpoint,result
"PhoQ, residues 284 288 289 292 302 303 GNNTDL","PhoP, residues 12 14 15 18 19 LHATL (Escherichia coli, UniProt P23836)","Sort-seq, item: YFP reporter",E. coli,"PhoQ-PhoP variant library, with: 10 µM Mg2+","reference: high Mg2+ state, higher = stronger signaling",fold induction,2.53

# For quick reference, copied from above (series 3):
Substitution,normalised enrichment score
SFEPRNLLSLFHD [E12H],0.262
SFEPRNLDSLFED [L8D],-0.35
SFEPRNLLSLFEF [D13F],0.245
